# Published values gathered from unrelated publications.
# Each line is one published result; not all experiments were run side by side. Several values in a cell are separate wells, animals, samples, runs or records. ± gives the spread as reported.
# UCHL1: Ubiquitin carboxyl-terminal hydrolase isozyme L1 (UCHL1, Homo sapiens, UniProt P09936)
# UniProt P09936, sequence (whole entry, looked up): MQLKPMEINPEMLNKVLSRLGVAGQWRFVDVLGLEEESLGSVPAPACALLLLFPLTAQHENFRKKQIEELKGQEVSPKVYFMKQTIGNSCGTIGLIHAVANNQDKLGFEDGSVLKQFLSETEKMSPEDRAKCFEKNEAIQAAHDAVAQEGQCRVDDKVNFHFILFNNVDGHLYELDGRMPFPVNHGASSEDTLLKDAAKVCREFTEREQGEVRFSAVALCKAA
# UniProt Q07794, sequence (whole entry, looked up): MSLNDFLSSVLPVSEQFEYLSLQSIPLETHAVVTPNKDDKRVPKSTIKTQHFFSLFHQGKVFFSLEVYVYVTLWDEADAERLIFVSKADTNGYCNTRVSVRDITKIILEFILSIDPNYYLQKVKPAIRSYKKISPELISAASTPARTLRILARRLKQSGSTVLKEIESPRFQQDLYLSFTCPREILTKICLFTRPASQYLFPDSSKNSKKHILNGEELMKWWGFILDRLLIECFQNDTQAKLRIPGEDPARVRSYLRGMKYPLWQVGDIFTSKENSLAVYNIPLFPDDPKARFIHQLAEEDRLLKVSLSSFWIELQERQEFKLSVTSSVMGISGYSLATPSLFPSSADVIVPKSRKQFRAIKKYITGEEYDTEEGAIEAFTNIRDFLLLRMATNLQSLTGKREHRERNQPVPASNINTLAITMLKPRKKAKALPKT
SMILES,target or system,assay,system,setting,measurement,result
CC(C)(O)c1coc(S(=O)(=O)NC(=O)Nc2c3c(cc4c2CCC4)CCC3)c1,,,"Sprague-Dawley rat, male, ankle joint tissue","oral, 2 mg/kg, 2 h",concentration,17000 ng/g and 5190 ng/g and 6980 ng/g
CN(C(=O)n1cnc(-c2ccc[n+]([O-])c2)c1)[C@H]1CC[C@H](O)CC1,,,"Wistar rat, midbrain","oral, 10 mg/kg/day of BIA 10-2474, 48 h, repeated 5 days",concentration,14 ± 0.6 ng/g
COc1nc(-c2cc(C)c(N[C@@H](C)c3cc(F)cc(F)c3)nn2)ccc1-n1cnc(C)c1,,,"rat Sprague-Dawley male, plasma","oral, 5 mg/kg daily for 9 days, 4 h after dose",concentration,2020 ng/mL
CCc1c(-c2ccccc2)c(-c2ccccc2)nn1-c1ccccc1-c1cccc(OCC(=O)O)c1,,,"Sprague-Dawley rat, small intestine homogenate","oral, 10 mg/kg, 4 h",concentration,3610 ng/mL and 2630 ng/mL
Cc1nccc2c1c(=O)n(C)c1cc(OC[C@@H](N)CC(C)C)c(C#N)cc21,,,"rat, lumbar spinal cord","intrathecal, 3 µg, 30 min",concentration,229 nM
CC1=C(C#N)C(=O)N=C(O)C1=Cc1ccc(-c2cc([N+](=O)[O-])ccc2Cl)o1,UCHL1,"covalent, intact protein LC-MS",,12.5 µM,labelling,34%
O=C1C[C@@H](c2ccc(O)cc2)Oc2cc(O)cc(O)c21,,,"Sprague-Dawley rat, kidney","intravenous, 1 mg/kg, 12 h",concentration,54.2 ± 13 ng/g
Oc1ccccc1-c1nnc(S)o1,"Histone acetyltransferase RTT109, with Vps75 (Saccharomyces cerevisiae, UniProt Q07794)","enzyme activity, inhibitor, HTS, CPM-based, dose response",,,IC50,> 125 µM
CN(C(=O)n1cnc(-c2cccnc2)c1)[C@H]1CC[C@H](O)CC1,,,"Wistar rat, medulla oblongata","oral, 10 mg/kg of BIA 10-2474, 1 h, single dose",concentration,14.2 ± 0.9 ng/g
COC(=O)[C@@H]1[C@H]2C[C@H]3c4[nH]c5ccccc5c4CCN3C[C@@H]2CC[C@@H]1O,,,"rat, brain","intraperitoneal, 1 mg/kg, 1.5 h, with: tizanidine",concentration,300 nM
COc1ccc2ccccc2c1-c1cc(CNC(=O)C(C)Cl)on1 (centres unmarked),UCHL1,"covalent, intact protein LC-MS",,12.5 µM,labelling,12.8%

# For quick reference, copied from above:
SMILES,target or system,assay,system,setting,measurement,result
CN(C(=O)n1cnc(-c2cccnc2)c1)[C@H]1CC[C@H](O)CC1,,,"Wistar rat, medulla oblongata","oral, 10 mg/kg of BIA 10-2474, 1 h, single dose",concentration,14.2 ± 0.9 ng/g
